Experimental data gathered from unrelated publications.
Sequence of UniProt P08183 (whole entry, looked up): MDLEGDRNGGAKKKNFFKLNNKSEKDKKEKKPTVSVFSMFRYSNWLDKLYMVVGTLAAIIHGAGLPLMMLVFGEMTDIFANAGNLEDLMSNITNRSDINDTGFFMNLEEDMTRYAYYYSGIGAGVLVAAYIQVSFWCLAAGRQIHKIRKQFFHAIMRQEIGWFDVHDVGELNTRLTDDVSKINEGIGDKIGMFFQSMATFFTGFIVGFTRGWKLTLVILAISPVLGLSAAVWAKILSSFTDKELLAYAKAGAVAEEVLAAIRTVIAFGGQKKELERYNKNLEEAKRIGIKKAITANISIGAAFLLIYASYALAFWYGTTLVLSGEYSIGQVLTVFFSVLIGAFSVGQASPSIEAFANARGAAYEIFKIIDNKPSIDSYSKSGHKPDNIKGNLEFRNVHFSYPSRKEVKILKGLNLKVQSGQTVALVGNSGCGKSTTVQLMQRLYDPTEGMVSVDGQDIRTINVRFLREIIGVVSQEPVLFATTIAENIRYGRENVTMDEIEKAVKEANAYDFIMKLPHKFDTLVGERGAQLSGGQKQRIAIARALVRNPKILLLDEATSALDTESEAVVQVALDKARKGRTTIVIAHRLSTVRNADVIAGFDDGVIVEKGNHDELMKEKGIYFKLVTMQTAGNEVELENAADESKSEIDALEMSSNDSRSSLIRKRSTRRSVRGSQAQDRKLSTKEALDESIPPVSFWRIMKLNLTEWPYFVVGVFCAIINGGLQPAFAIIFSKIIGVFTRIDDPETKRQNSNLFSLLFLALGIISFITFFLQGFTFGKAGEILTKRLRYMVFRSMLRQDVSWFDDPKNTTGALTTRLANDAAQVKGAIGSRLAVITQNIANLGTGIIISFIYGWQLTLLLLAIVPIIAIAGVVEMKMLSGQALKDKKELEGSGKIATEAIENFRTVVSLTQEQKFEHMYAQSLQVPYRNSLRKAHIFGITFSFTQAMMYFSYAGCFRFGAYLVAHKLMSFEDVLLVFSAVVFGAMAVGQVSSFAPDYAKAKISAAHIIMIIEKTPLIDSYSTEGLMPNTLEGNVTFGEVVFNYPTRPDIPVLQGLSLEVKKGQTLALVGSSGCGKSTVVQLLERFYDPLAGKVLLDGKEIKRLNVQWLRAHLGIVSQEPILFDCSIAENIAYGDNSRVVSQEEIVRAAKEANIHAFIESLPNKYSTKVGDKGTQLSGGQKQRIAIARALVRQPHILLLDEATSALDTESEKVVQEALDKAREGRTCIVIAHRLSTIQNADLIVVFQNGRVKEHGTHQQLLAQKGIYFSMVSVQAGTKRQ

Structure (SMILES)	target or system	assay	system	conditions	quantity	value
CC(=O)O[C@H]1C=C[C@H]2[C@H]3Cc4ccc(O)c5c4[C@@]2(CCN3C)[C@H]1O5			rat, whole blood	500 nM, 4 months, -80 °C, long-term storage	stability bias	-2.32%
Clc1ccc(C(c2ccccc2)N2CCN(C/C=C/c3ccccc3)CC2)cc1 (stereo not shown)	African green monkey cells			5 days	CC50	21.9 µM
COc1cc2c(Oc3ccc4[nH]c(C)cc4c3F)ccnc2cc1OCC1(N)CC1			paediatric recurrent refractory sarcoma	12 mg	grade 3 AST elevation	0%
O=C1c2c(O)c(=O)ccn2N([C@@H]2c3ccccc3SCc3c2ccc(F)c3F)[C@@H]2COCCN12			BALB/c mice, plasma	oral, 5 mg/kg baloxavir marboxil, 8 h	plasma concentration	11.9 ng/mL
COC(=O)[C@@H]1[C@H]2CC[C@@H](C[C@@H]1O)N2C			rat, whole blood	10 nM, 4 months, -80 °C, long-term storage	stability bias	15%
COc1ccc2c(c1)CCC(c1ccccc1)=C2c1ccc(OCCN2CCCC2)cc1	African green monkey cells			5 days	CC50	3.85 µM
CC(C)CC(=O)OC[C@H]1O[C@@](C#N)(c2ccc3c(N)ncnn23)[C@H](O)[C@@H]1O	ABCB1 (Homo sapiens, UniProt P08183)	basolateral to apical transport	Caco-2	0.9 µM, 2 h, with: verapamil 100 µM	recovery	80%
COC(=O)[C@H]1[C@@H](OC(=O)c2ccccc2)C[C@@H]2CC[C@H]1N2			rat, whole blood	10 nM, 4 h, room temperature, bench-top storage	stability bias	14.3%
CO[C@H]1C[C@@H]2CC[C@@H](C)[C@@](O)(O2)C(=O)C(=O)N2CCCC[C@H]2C(=O)O[C@H]([C@H](C)C[C@@H]2CC[C@@H](OC(=O)NCCOCCOCCOCCOCCOCCOCCOCCOCCC(=O)N3CCc4cc(Cn5nc(-c6ccc7oc(N)nc7c6)c6c(N)ncnc65)ccc4C3)[C@H](OC)C2)C[C@@H](O)[C@H](C)/C=C(\C)[C@@H](O)[C@@H](OC)C(=O)[C@H](C)C[C@H](C)/C=C/C=C/C=C/1C			patients with advanced solid tumours	intravenous, 1.6 mg/3 mg weekly, any grade	Pneumonia AE leading to dose reduction	0%
CNCc1ccc(-c2cc(-c3nc(-c4ccc(S(=O)(=O)C(C)C)cc4)cnc3N)on2)cc1	African green monkey cells			5 days	CC50	10.2 µM
O=c1ccc2ccccc2o1	NHEK	cell count		concentration not given, 6 h, GSH, ROS, ATP, MMP panel	chance response	0.01%
CN1[C@H]2CC[C@@H]1[C@@H](C(=O)O)[C@@H](OC(=O)c1ccccc1)C2			rat, whole blood	1000 nM, 4 h, room temperature, bench-top storage	stability bias	3.72%
CC[C@H]1C[N@@]2CC[C@H]1C[C@H]2[C@H](O)c1ccnc2ccc(OCCC(C)C)cc12	African green monkey cells			5 days	CC50	11.4 µM
